Assay results from different studies.
Parts stem from different laboratories: compare values within a part only. Positions count from the first letter of the parent shown.

Series 1 — technique: DHFR PCA, deep sequencing; medium: yeast; with: (+)-ABA 4.8 µM; relative to: wild-type fitted maximum; reading: higher = stronger binding
Target: ABI1, truncated, D143A, DHFR fusion (Arabidopsis thaliana)
Notes: methotrexate growth selection, single substitutions
Starting sequence: PYL1, truncated, DHFR fusion (Arabidopsis thaliana); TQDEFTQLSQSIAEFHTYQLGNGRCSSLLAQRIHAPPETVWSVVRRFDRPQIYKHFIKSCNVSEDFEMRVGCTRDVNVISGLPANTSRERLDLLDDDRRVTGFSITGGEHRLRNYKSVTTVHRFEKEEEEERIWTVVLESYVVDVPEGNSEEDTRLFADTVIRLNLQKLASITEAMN
Change | relative binding score [%]
S26A | 65.4
E109V | 43.2
E130F | 57.7
L169D | -2.87
G21R | 71.2
P83Q | 21.9
Y18M | 28.8
A158L | 94.8
V143D | -3.7
Y18L | 22.5

Series 2 — target: DBP, bZIP domain (human); technique: DHFR protein complementation; medium: yeast; relative to: wild-type JUN-FOS pair; reading: higher = stronger binding
Notes: single substitutions, most at no-binding floor
Starting sequence: JUN, bZIP domain (human); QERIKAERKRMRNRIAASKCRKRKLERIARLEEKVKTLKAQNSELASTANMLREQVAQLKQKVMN; partner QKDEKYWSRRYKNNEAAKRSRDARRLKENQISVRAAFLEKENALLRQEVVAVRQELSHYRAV
Change | binding fitness [natural log]
A29E | -1.51
L52T | -1.46
L45V | -1.32
S43H | -1.62
R53M | -1.47
Q41T | -1.38

Series 3 — technique: RNA Bind-n-Seq; molecule type: RNA; medium: in vitro; concentration: 200 nM; notes: whole 134-nt RNA, ends assumed; with: 150 mM KCl; relative to: input library; reading: higher = stronger binding
Target: Fragile X messenger ribonucleoprotein 1, C-terminal low-complexity region (Fmr1, Mus musculus, UniProt P35922)
Shared flanks, not repeated: GGGAGUUCUACAGUCCGACGAUC … UGGAAUUCUCGGGUGUCAAGG
Oligonucleotide | log2 enrichment
CCUGUGCUACACAUCGUAUGUACCGAAUCGGCCCCCCCGGGCCCCCCCGGGCCCCCCCGGAAAGUAUUAUGUUACGCCGUUCGGAUCUGC | -0.171
GCAGGAAGUAAAAACAAAUGGAAAUGCUUCGGAUAGUGGCAGGGGUGGGGGUUGCUAAGGAAAGGGUGGGAAAAGAGUGGGUAAAGAGUU | 0.321
GCAGGAAGUAAAAACAAAUGGAAAUGCUUCGGAUAGUGGCAGGGGUGGGGGUUGCUGAGGAAAGGGUGGGAUGGGAGUGGGUAAAGAGUU | 0.345
CACAGACAACACGCACCCACACAGACACAGAGGGAAGGGGUUGGGAUGGGGACAGGGAAAACAGCAGGGCGGGGUAGGACCCCAGCCCCU | 0.956
UAACUUUAGAGGAGGAUCUGAUGGACAUGGCAGUGGACGUGGAUUUGGGGAUGGCUAUAAUGGGUAUGGAGGAGGACCUGGAGGUGGCAA | 0.282
CCUGUGCUACACAUCGUAUGUACCGAAUCGGGGAAAGGGGUUUUUGGGGAAAAAAAGGGGAAAGUAUUAUGUUACGCCGUUCGGAUCUGC | 0.162
UCCUGUGCUACACAUCGUAUGUACCGAAUCGGGCCCCCCGGGCCCCCCGGGCCCCCCGGGAAAGUAUUAUGUUACGCCGUUCGGAUCUGC | -0.317
CCUCAAGUCCUGUGCUACACAUCGUAUGUACCGAAUCGGAAAGGAGGAAAGGAAAGUAUUAUGUUACGCCGUUCGGAUCUGCACUUCCAG | 0.176

Other studies, line by line
Molecule | target | test | test system | conditions | scale | quantity | value
PhoQ, residues 284 288 289 292 302 303 AEGLLW | PhoP, residues 12 14 15 18 19 MHTVL (Escherichia coli, UniProt P23836) | Sort-seq, refers to: YFP reporter | E. coli | PhoQ-PhoP variant library, with: 10 µM Mg2+ | relative to: high Mg2+ state, higher = stronger signaling | fold induction | 4.92

A few entries again (series 1):
Change | relative binding score [%]
L169D | -2.87
G21R | 71.2
E109V | 43.2
